# Experimental data gathered from unrelated publications.
# Each line is one published result; not all experiments were run side by side. Values joined by “and” are separate records of one study, mostly repeats; a detail may differ. ± gives the spread as reported.
Structure (SMILES),cell line,assay,system,conditions,how to read,endpoint,result
O=C(O)CCCOc1ccc(F)cc1-c1cc(-c2ccccc2C(F)(F)F)n(-c2ccccc2)n1,human iPSC-derived cardiomyocytes,,,2 µM,,beat rate,46.8 ± 1.9 min⁻¹
COc1cc2ncnc(Nc3ccc(Oc4ccccc4)cc3C)c2cc1OC.O=C(O)C(F)(F)F,A-375 (BRAF V600E),,,"1 µM, 72 h",,viability,1.03 fraction of control
CC(C)C[C@H](NC(=O)[C@H](CCCNC(=N)N)NC(=O)CNC(=O)CNC(=O)[C@H](CCCNC(=N)N)NC(=O)CNC(=O)CNC(=O)CNC(=O)c1ccc2c(c1)C(=O)OC21c2ccc(O)cc2Oc2cc(O)ccc21)C(=O)N[C@@H](CO)C(=O)N[C@@H](Cc1ccc(O)cc1)C(=O)N[C@@H](CO)C(=O)N[C@@H](CCCNC(=N)N)C(=O)N[C@@H](CCCNC(=N)N)C(=O)N[C@@H](CCCNC(=N)N)C(=O)N[C@@H](Cc1ccccc1)C(=O)N[C@@H](CO)C(=O)N[C@H](C(=O)N[C@@H](CO)C(=O)N[C@H](C(=O)NCC(=O)N[C@@H](CCCNC(=N)N)C(N)=O)[C@@H](C)O)[C@@H](C)O,hCMEC/D3 monolayers,"BBB permeability, Transwell, measured: CF-labelled compound",EGM-2 medium,"concentration not given, 1 h, apical to basal",relative to: fluorescence added apically,transport ratio,3.8%
COc1cc(C=NNC(=O)c2nc3ccccc3s2)ccc1OS(C)(=O)=O,BJ-1 fibroblasts,MTT,,"100 µM, 48 h",,cytotoxicity,33.9%
Cc1ncc(CO)c(C=O)c1O,HCT-8 infected with Cryptosporidium parvum,Hoechst nuclei count,,"1 mM, 24 h",relative to: PBS,host cell number,0.892 ± 0.044
COc1cc(CNC(=O)c2ccccc2C)cc(Br)c1OC,Vero-E6,CCK-8,,24 h,,CC50,> 800 µM
Cc1cc(C(=O)NC(C)(C)COc2cccc3c2C(N)=NS(=O)(=O)N3)cc(C)n1,human peripheral blood lymphocytes,"CBPI, concurrent micronucleus test",,"250 µg/mL, 4 h, together with: rat liver S9",relative to: vehicle control,cytotoxicity,1%
CC(=O)Oc1ccccc1C(=O)O,human iPSC-derived cardiomyocytes,,,1 µM,,beat rate,45.6 ± 1.8 min⁻¹
Oc1cccc2[nH]ccc12,HCT-8 infected with Cryptosporidium parvum,Hoechst nuclei count,,"1 mM, 24 h",relative to: PBS,host cell number,0.798 ± 0.025
Cc1ccc(Nc2cnnc3ccc(-c4ccc(N5CCN(C)CC5)cc4)cc23)cn1,B10R mouse macrophages,cytotoxicity,,,,TC50,3.9 µM
C[C@@H](c1ncncc1F)[C@](O)(Cn1cncn1)c1ccc(F)cc1F,MDCK,,,"1 µM, 90 min, pH 7.4 apical, 7.4 basolateral",,Papp A to B,31.6 ×10⁻⁶ cm/s and 28.8 ×10⁻⁶ cm/s
Cc1ncc(CO)c(C(=O)O)c1O,HCT-8 infected with Cryptosporidium parvum,Hoechst nuclei count,,"1 mM, 24 h",relative to: PBS,host cell number,0.98 ± 0.082
N[C@@H](Cc1cc(I)c(Oc2cc(I)c(O)c(I)c2)c(I)c1)C(=O)O,MDCK low-efflux,,,,,Papp (A to B),1.2 ×10⁻⁶ cm/s
CC(=O)Nc1ccc(O)cc1,MDCK,,,"1 µM, 90 min, pH 7.4 apical, 7.4 basolateral, apical to basolateral",,mass recovery,90 ± 5%
CC(C)C[C@H](NC(=O)[C@H](CC(C)C)NC(=O)[C@H](CCCNC(=N)N)NC(=O)[C@H](CCCCN)NC(=O)[C@H](CCCNC(=N)N)NC(=O)[C@H](CC(C)C)NC(=O)[C@H](CCCCN)NC(=O)[C@H](CCCNC(=N)N)NC(=O)[C@H](CC(C)C)NC(=O)[C@H](CC(C)C)NC(=O)[C@H](CC(C)C)NC(=O)[C@H](CCCNC(=N)N)NC(=O)[C@H](CCCCN)NC(=O)[C@H](CCCNC(=N)N)NC(=O)[C@H](CC(C)C)NC(=O)[C@H](CCCCN)NC(=O)[C@H](CCCNC(=N)N)NC(=O)[C@H](CC(C)C)NC(=O)CNC(=O)CNC(=O)CNC(=O)c1ccc2c(c1)C(=O)OC21c2ccc(O)cc2Oc2cc(O)ccc21)C(N)=O,hCMEC/D3 monolayers,"BBB permeability, Transwell, measured: CF-labelled compound",EGM-2 medium,"concentration not given, 3 h, apical to basal",relative to: fluorescence added apically,transport ratio,13.7%
CCCC(CCC)NC(=O)c1ccc2c(c1)OCO2,CHO-WBL,,,"0.021 mg/mL, 3 h, with rat liver S9",,relative mitotic index,107%
Nc1nc2nc[nH]c2c(=O)[nH]1,HCT-8 infected with Cryptosporidium parvum,Hoechst nuclei count,,"1 mM, 24 h",relative to: PBS,host cell number,1 ± 0.045
Cc1noc(C)c1Cn1cc(N2C(=O)CN(Cc3cccc(O)c3)C2=O)cn1,human blood lymphocytes,,,"494.3 µg/mL, 3 h, with 2% S9",,aberrant cells with gaps,0%
CNCC(=O)O,HCT-8 infected with Cryptosporidium parvum,Hoechst nuclei count,,"1 mM, 24 h",relative to: PBS,host cell number,0.978 ± 0.054
CCC(=CCc1c(O)cc2c(c1O)C(=O)C[C@@H](c1ccc(O)cc1)O2)CC,HeLa,"cytotoxicity, MTT",,"48 h, together with: S9 fraction",,log IC50,1.36 log µM
COc1cnc(Nc2cnnc3ccc(-c4ccc(N5CCN(C)CC5)cc4)cc23)nc1,B10R mouse macrophages,cytotoxicity,,,,TC50,2.7 µM
N.O=C(Nc1nc2ccccc2s1)NS(=O)(=O)O,MDCK-MDR1,,,MDR1 inhibited,,Papp,0.024 ×10⁻⁶ cm/s
CC(C)NCC(O)COc1cccc2ccccc12 (stereo not shown),MDCK-MDR1 cells,,,"5 µM, pH 7.4",,Papp A to B,55.8 ×10⁻⁶ cm/s
C[C@H](CCC(=O)O)[C@H]1CC[C@H]2[C@@H]3CC[C@@H]4C[C@H](O)CC[C@]4(C)[C@H]3CC[C@]12C,HCT-8 infected with Cryptosporidium parvum,Hoechst nuclei count,,"0.1 mM, 24 h",relative to: PBS,host cell number,0.923 ± 0.111
CC(=O)Nc1ccc(O)cc1,"THLE-2, 3D culture",MTT,,"100 µM, 96 h",,viability,67.4%
Cc1cnc(Nc2ccc(OCCN3CCCC3)cc2)nc1Nc1cccc(S(=O)(=O)NC(C)(C)C)c1,MDCK,,,"1 µM, 90 min, pH 7.4 apical, 7.4 basolateral, apical to basolateral",,mass recovery,63 ± 3%
O=C(O)/C=C/C(=O)O,HCT-8 infected with Cryptosporidium parvum,Hoechst nuclei count,,"1 mM, 24 h",relative to: PBS,host cell number,0.962 ± 0.016
COc1ccc(C[C@H]2CO[C@H](c3ccc(OC)c(OC)c3)[C@H]2COC(=O)CC(C)C)cc1OC,HEK293/NF-κB-luc,CellTracker Green CMFDA,,"20 µM, 4.5 h, serum-free medium",relative to: stimulated untreated cells,viability,119 ± 6%
CN(C)c1ccc(C(=C2C=CC(=[N+](C)C)C=C2)c2ccc(N(C)C)cc2)cc1,MYBPC3 iPSC cardiomyocytes,cytotoxicity,,24 h,,EC50,39.3 µM
O=C(O)c1ccc(NS(=O)(=O)c2ccc(Cl)c(Cl)c2)cc1F,RRCK cells,passive permeability,,,,apparent permeability,0.9 ×10⁻⁶ cm/s
O=C(O)CCC(=O)C(=O)O,HCT-8 infected with Cryptosporidium parvum,Hoechst nuclei count,,"1 mM, 24 h",relative to: PBS,host cell number,0.923 ± 0.154
CC(=O)Nc1cccc(-n2c(=O)n(C3CC3)c(=O)c3c(Nc4ccc(I)cc4F)n(C)c(=O)c(C)c32)c1,MeWo,resazurin,,"100.00 nM, 72 h, unit not given",relative to: DMSO,viability,0.5 and 0.553
CC(C)n1nccc1-c1ncccc1COc1cccc(O)c1C=O,MDCK,permeability basolateral to apical,,"1 µM, 90 min, pH 6.5 apical to 7.4 basolateral",,Papp,39 ×10⁻⁶ cm/s and 34.3 ×10⁻⁶ cm/s
O=C(NN=Cc1ccc(O)cc1)c1nc2ccccc2s1,BJ-1 fibroblasts,MTT,,"100 µM, 48 h",,cytotoxicity,24.9%
CC1(C)OB(c2cccc(CNS(=O)(=O)c3cc(C(=O)Nc4cc(F)c(F)c(F)c4)ccc3F)c2)OC1(C)C,HepAD38,CCK-8,,6 d,,CC50,6.06 ± 0.41 µM
CCn1c(=O)c2c(nc(/C=C/c3ccc(OC)c(OC)c3)n2C)n(CC)c1=O,MDCK,,,"1 µM, 90 min, pH 7.4 apical, 7.4 basolateral",,Papp A to B,25.6 ×10⁻⁶ cm/s and 28.8 ×10⁻⁶ cm/s
CCOC(=O)c1cccc(Cn2ccc3ccc(-c4ccc5ccn(Cc6cccc(C(=O)O)c6)c5c4)cc32)c1,MAGI-CCR5 cells,cytotoxicity,,"48 h, 2% serum",,TC50,24.5 µM

# For quick reference, copied from above:
Structure (SMILES),cell line,assay,system,conditions,how to read,endpoint,result
N.O=C(Nc1nc2ccccc2s1)NS(=O)(=O)O,MDCK-MDR1,,,MDR1 inhibited,,Papp,0.024 ×10⁻⁶ cm/s
CC(=O)Nc1ccc(O)cc1,MDCK,,,"1 µM, 90 min, pH 7.4 apical, 7.4 basolateral, apical to basolateral",,mass recovery,90 ± 5%
C[C@H](CCC(=O)O)[C@H]1CC[C@H]2[C@@H]3CC[C@@H]4C[C@H](O)CC[C@]4(C)[C@H]3CC[C@]12C,HCT-8 infected with Cryptosporidium parvum,Hoechst nuclei count,,"0.1 mM, 24 h",relative to: PBS,host cell number,0.923 ± 0.111
C[C@@H](c1ncncc1F)[C@](O)(Cn1cncn1)c1ccc(F)cc1F,MDCK,,,"1 µM, 90 min, pH 7.4 apical, 7.4 basolateral",,Papp A to B,31.6 ×10⁻⁶ cm/s and 28.8 ×10⁻⁶ cm/s
O=C(O)CCC(=O)C(=O)O,HCT-8 infected with Cryptosporidium parvum,Hoechst nuclei count,,"1 mM, 24 h",relative to: PBS,host cell number,0.923 ± 0.154
